Earlier results, collected from citations in different studies.
Each numbered part shows a few of the values that one paper quotes. ± gives the spread as reported.

Study 1
Compound: OCCN1CCN(CCC=C2c3ccccc3Sc3ccc(C(F)(F)F)cc32)CC1
Cell line: MCF7
Method: microarray
Tested at: concentration not given
Relative to: DMSO
Measurement: log2 fold change
measured = TMEM41B mRNA; value = 1.18
measured = TRIB1 mRNA; value = 1.29
measured = VEGFA mRNA; value = 1.28
measured = VEZF1 mRNA; value = 1.03

Mixed results
SMILES = CCCCCCCCCCCCCCCCCC[S+](CCC)c1ccccc1C(=O)OCC (centres unmarked); target or system = Caco-2; measurement = CC50; value = 890 ± 830 nM
SMILES = Cl.Oc1cc2c(cc1O)[C@H]1c3ccccc3CN[C@@H]1CC2; target or system = Toxoplasma gondii; read-out = parasite growth; tested at = concentration not given; notes = published screen; measurement = activity class; value = inactive
SMILES = Nc1nc2c(ncn2[C@@H]2O[C@H](CO)[C@@H](O)[C@H]2O)c(=S)[nH]1; target or system = Caco-2; measurement = CC50; value = 630 ± 420 nM
SMILES = CCOC(=O)[C@@H]1CSCC(=O)N[C@H](CC)C(=O)N(C)[C@@H](C)C(=O)N[C@@H](CC(C)C)C(=O)N(C)[C@H](C)C(=O)N(CC(C)C)CC(=O)N[C@H](CC(C)C)C(=O)N(C)[C@@H](C)C(=O)N[C@@H](CC(C)C)C(=O)N1C; target or system = MDCK; measurement = log permeability (Pe); value = -5.19
